{"data": "Results gathered from unrelated publications", "P2RY14": "P2Y purinoceptor 14 (P2RY14, Homo sapiens, UniProt Q15391)", "P2Y purinoceptor 1": "P2Y purinoceptor 1 (Meleagris gallopavo, UniProt P49652)", "Transcriptional regulator ComR": "Transcriptional regulator ComR (Streptococcus mutans serotype c, UniProt Q8DWI6)", "P2RY4": "P2Y purinoceptor 4 (P2RY4, Homo sapiens, UniProt P51582)", "P2RY2": "P2Y purinoceptor 2 (P2RY2, Homo sapiens, UniProt P41231)", "ESR1": "Estrogen receptor (ESR1, Homo sapiens, UniProt P03372)", "note": "Compare with care: the assays were run in different laboratories. ± gives the spread as reported.", "chain of UniProt P51582 (whole entry, looked up)": "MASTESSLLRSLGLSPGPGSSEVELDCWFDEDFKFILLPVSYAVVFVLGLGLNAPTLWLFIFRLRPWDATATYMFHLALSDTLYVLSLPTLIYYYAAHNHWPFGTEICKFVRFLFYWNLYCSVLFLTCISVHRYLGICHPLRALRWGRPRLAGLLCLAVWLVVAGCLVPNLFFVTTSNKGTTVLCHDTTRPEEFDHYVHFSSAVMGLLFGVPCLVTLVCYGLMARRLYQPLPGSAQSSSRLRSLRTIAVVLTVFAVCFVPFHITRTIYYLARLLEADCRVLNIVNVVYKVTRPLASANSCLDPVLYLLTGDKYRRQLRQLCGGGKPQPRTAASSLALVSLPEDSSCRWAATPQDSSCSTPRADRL", "chain of UniProt P41231 (whole entry, looked up)": "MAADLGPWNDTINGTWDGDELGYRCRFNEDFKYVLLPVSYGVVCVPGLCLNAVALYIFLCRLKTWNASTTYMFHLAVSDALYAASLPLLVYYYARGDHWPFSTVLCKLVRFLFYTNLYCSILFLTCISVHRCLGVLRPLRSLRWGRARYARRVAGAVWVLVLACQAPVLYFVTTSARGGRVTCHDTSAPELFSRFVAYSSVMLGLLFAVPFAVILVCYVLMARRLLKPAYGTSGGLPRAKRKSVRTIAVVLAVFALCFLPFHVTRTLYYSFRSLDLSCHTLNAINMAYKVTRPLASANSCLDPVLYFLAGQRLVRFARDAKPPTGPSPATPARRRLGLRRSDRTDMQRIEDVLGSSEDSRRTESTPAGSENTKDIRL", "chain of UniProt P03372 (whole entry, looked up)": "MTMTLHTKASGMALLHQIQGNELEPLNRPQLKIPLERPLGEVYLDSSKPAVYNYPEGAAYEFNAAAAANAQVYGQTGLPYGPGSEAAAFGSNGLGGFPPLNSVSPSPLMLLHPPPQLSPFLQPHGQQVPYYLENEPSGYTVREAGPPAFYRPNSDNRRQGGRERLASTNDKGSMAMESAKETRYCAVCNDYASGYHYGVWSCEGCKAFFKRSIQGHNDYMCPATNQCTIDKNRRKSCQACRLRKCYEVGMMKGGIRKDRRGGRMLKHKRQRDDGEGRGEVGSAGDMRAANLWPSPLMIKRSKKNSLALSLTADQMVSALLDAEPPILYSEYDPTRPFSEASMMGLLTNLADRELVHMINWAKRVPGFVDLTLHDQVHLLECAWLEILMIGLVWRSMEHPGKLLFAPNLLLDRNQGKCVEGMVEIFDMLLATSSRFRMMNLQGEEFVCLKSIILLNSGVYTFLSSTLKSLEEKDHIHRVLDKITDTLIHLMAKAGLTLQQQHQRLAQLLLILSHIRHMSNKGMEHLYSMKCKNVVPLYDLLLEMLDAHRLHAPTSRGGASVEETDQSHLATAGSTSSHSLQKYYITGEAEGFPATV", "chain of UniProt P49652 (whole entry, looked up)": "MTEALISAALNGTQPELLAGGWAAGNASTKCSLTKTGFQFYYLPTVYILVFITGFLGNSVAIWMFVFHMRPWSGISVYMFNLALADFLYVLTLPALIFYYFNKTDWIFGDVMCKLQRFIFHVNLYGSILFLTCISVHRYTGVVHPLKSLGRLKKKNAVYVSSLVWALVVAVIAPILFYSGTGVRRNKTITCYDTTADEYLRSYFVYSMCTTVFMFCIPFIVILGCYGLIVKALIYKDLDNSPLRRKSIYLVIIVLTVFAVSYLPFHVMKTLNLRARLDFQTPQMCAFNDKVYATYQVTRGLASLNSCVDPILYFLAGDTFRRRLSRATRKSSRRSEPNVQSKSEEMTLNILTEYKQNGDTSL", "chain of UniProt Q15391 (whole entry, looked up)": "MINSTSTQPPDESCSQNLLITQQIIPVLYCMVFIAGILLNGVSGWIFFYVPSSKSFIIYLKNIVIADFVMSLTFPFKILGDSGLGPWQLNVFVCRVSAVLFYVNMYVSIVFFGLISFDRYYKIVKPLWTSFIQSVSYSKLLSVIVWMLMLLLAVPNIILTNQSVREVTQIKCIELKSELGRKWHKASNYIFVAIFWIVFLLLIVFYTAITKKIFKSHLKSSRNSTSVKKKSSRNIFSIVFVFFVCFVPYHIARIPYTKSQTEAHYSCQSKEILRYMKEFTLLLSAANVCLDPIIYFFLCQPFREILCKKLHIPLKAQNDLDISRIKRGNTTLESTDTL", "chain of UniProt Q16740 (whole entry, looked up)": "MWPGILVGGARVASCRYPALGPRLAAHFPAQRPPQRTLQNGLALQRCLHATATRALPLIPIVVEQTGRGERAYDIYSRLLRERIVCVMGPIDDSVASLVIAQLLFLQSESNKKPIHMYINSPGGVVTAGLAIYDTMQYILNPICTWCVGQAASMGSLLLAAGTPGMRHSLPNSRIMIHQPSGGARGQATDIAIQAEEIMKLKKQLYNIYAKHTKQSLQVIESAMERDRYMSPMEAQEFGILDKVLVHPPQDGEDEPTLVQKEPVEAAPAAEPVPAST", "chain of UniProt P08913 (whole entry, looked up)": "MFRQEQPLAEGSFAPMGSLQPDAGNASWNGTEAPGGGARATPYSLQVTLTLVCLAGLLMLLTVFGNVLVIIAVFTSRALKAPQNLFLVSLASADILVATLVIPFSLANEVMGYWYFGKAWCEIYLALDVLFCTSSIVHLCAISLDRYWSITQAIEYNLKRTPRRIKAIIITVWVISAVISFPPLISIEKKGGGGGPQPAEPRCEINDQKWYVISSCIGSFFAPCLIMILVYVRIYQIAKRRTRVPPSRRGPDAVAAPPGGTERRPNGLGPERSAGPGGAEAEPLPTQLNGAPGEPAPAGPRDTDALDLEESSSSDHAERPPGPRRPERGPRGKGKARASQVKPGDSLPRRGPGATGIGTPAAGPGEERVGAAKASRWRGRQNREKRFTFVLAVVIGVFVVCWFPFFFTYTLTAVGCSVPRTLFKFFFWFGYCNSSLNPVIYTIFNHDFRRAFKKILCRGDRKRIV", "chain of UniProt Q92731 (whole entry, looked up)": "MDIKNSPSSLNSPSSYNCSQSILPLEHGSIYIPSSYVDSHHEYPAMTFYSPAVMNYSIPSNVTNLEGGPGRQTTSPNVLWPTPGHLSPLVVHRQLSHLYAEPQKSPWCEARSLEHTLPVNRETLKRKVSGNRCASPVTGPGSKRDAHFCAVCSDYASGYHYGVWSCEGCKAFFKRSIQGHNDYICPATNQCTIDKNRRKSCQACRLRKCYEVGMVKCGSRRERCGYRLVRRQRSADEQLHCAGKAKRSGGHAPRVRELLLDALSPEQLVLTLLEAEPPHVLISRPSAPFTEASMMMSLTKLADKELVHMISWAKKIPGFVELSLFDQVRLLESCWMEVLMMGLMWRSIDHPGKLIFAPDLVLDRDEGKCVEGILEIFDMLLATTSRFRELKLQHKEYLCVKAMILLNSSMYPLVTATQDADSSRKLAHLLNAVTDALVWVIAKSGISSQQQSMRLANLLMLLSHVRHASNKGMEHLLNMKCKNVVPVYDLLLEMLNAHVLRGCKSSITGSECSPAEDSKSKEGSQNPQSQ", "chain of UniProt P20272 (whole entry, looked up)": "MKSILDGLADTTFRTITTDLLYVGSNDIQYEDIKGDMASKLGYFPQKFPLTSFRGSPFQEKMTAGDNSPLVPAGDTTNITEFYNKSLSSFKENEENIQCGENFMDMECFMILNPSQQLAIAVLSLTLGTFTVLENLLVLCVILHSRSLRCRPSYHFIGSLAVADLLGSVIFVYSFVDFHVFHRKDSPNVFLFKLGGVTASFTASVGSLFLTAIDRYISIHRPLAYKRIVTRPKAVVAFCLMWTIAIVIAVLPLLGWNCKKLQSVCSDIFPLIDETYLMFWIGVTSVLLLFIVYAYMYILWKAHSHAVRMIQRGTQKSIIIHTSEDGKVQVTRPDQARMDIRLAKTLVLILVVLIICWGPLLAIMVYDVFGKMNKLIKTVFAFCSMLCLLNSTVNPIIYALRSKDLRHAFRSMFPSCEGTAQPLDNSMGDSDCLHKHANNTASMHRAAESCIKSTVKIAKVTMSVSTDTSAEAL", "chain of UniProt P18507 (whole entry, looked up)": "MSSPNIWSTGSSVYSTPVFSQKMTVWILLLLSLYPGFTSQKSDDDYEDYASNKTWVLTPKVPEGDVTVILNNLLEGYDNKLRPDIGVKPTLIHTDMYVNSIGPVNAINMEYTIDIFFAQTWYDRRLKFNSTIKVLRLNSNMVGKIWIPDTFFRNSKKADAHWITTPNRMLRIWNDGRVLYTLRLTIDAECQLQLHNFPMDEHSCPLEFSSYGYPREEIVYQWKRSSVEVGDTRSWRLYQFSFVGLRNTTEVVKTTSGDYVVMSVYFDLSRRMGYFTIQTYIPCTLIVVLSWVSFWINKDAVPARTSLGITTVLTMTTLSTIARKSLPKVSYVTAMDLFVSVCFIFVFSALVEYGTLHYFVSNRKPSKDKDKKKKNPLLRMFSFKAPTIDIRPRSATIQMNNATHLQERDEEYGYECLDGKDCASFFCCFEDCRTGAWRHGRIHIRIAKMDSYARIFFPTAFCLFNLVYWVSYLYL", "chain of UniProt W7FI62 (whole entry, looked up)": "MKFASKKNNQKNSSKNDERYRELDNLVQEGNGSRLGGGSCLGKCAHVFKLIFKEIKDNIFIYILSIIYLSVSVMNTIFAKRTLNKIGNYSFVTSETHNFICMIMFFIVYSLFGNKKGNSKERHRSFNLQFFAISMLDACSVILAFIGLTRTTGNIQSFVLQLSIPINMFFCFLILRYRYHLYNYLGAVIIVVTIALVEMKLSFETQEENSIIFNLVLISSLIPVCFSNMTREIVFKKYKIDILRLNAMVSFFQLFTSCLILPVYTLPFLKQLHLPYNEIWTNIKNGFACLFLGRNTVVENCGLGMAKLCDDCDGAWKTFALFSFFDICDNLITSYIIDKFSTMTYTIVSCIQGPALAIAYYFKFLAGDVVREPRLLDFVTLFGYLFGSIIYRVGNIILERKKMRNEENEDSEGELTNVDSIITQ"}
{"Substance": "CCCCC/C=C\\C/C=C\\C/C=C\\C/C=C\\CCCC(=O)OC(CO)CO", "target": "CNR2 (Homo sapiens, UniProt P34972, Q63R)", "assay": "β-arrestin 2 recruitment, agonist, BRET", "system": "HEK293 coexpressing GRK5", "EC50": "1.51 µM"}
{"Substance": "CC(=O)NCCNC(=O)C1OC(OP(=O)(O)OP(=O)(O)OCC2OC(n3ccc(=O)[nH]c3=O)C(O)C2O)C(O)C(O)C1O (centres unmarked)", "target": "P2RY14", "assay": "cAMP accumulation inhibition, agonist", "system": "HEK293 expressing P2RY14", "setting": "dose as dendrimer conjugate, with: forskolin 30 µM", "EC50": "0.496 ± 0.067 µM"}
{"Substance": "C/C=C(\\N)C(=O)CCCCCCC", "target": "cqsS (Vibrio campbellii, UniProt A7N6S2)", "assay": "bioluminescence, agonist", "system": "Vibrio harveyi, wild type", "EC50": "0.024 ± 0.007 µM"}
{"Substance": "BP(=O)(OC[C@H]1O[C@@H](n2cnc3c(N)ncnc32)[C@H](O)[C@@H]1O)OP(=O)(O)OP(=O)(O)OC[C@H]1O[C@@H](n2cnc3c(N)ncnc32)[C@H](O)[C@@H]1O (some centres unmarked)", "target": "P2Y purinoceptor 1", "assay": "calcium signal, agonist, fluorescence", "EC50": "0.76 µM"}
{"Substance": "CC(C)C[C@H](NC(=O)[C@H](CCCNC(=N)N)NC(=O)[C@H](CCC(N)=O)NC(=O)[C@@H]1CCCN1)C(=O)N[C@@H](CCCNC(=N)N)C(=O)N[C@@H](Cc1c[nH]c2ccccc12)C(N)=O", "target": "Short neuropeptide F receptor (Drosophila melanogaster, UniProt Q9VW75)", "assay": "calcium mobilization, agonist", "system": "HEK-293T transfected, Gα16", "setting": "37 °C", "EC50": "0.00555 ± 0.00395 µM"}
{"Substance": "CC(C)C[C@H](NC(=O)[C@H](C)NC(=O)[C@H](Cc1c[nH]c2ccccc12)NC(=O)[C@H](Cc1c[nH]c2ccccc12)NC(=O)[C@H](CC(=O)O)NC(=O)[C@H](CC(C)C)NC(=O)CN)C(=O)O", "target": "Transcriptional regulator ComR", "system": "Streptococcus mutans", "EC50": "0.26 µM"}
{"Substance": "C=C[C@@]1(C)CC(=O)[C@]2(O)[C@@]3(C)[C@@H](O)CCC(C)(C)[C@@H]3[C@H](O)[C@H](OC(C)=O)[C@@]2(C)O1", "target": "Relaxin receptor 1 (RXFP1, Homo sapiens, UniProt Q9HBX9)", "assay": "agonist", "EC50": "0.047 µM"}
{"Substance": "[BH3-][P+](O)(OP(=O)(O)OC[C@H]1O[C@@H](n2cnc3c(N)ncnc32)[C@H](O)[C@@H]1O)OP(=O)(O)OP(=O)(O)OC[C@H]1O[C@@H](n2ccc(=O)[nH]c2=O)[C@H](O)[C@@H]1O (some centres unmarked)", "target": "P2RY4", "assay": "intracellular calcium rise, agonist", "system": "1321N1 expressing human P2Y4", "setting": "37 °C", "EC50": "> 100 µM"}
{"Substance": "O=C1C2=C(CCN(Cc3ccccc3)C2)N2CCN=C2N1Cc1ccc(C(F)(F)F)cc1", "target": "CLPP (Homo sapiens, UniProt Q16740)", "assay": "FITC-casein degradation, activator", "setting": "without ClpX", "EC50": "0.46 µM"}
{"Substance": "BP(=O)(OC[C@H]1O[C@@H](n2ccc(=O)[nH]c2=O)[C@H](O)[C@@H]1O)OP(=O)(O)OP(=O)(O)OP(=O)(O)OC[C@H]1O[C@@H](n2ccc(=O)[nH]c2=O)[C@H](O)[C@@H]1O (some centres unmarked)", "target": "P2RY2", "assay": "intracellular calcium rise, agonist", "system": "1321N1 expressing human P2Y2", "setting": "37 °C", "EC50": "> 100 µM"}
{"Substance": "Clc1ccc(Cl)c(-c2c(Cl)ccc(Cl)c2Cl)c1Cl (racemic)", "target": "ESR1", "assay": "reporter gene, agonist, luciferase", "EC50": "6.8 µM"}
{"Substance": "[BH3-][P+](O)(OP(=O)(O)OC[C@H]1O[C@@H](n2ccc(=O)[nH]c2=O)[C@H](O)[C@@H]1O)OP(=O)(O)OP(=O)(O)OC[C@H]1O[C@@H](n2ccc(=O)[nH]c2=O)[C@H](O)[C@@H]1O (some centres unmarked)", "target": "P2RY4", "assay": "intracellular calcium rise, agonist", "system": "1321N1 expressing human P2Y4", "setting": "37 °C", "EC50": "> 100 µM"}
{"Substance": "O=C1C[C@@H](c2ccc(O)cc2)Oc2cc(O)ccc21", "target": "ESR1", "assay": "reporter gene, agonist", "system": "Hs578T ERα luciferase", "setting": "24 h, with: 50 ng/mL doxycycline", "EC50": "0.1 µM"}
{"Substance": "O=C(O)[C@H]1O[C@H](OP(=O)(O)OP(=O)(O)OC[C@H]2O[C@@H](n3ccc(=O)[nH]c3=O)[C@H](O)[C@@H]2O)[C@H](O)[C@@H](O)[C@@H]1O", "target": "P2RY14", "assay": "cAMP inhibition, agonist", "system": "CHO expressing human P2Y14", "setting": "15 min, 37 °C, with: forskolin", "EC50": "0.047 µM"}
{"Substance": "CC(C)[C@H](NC(=O)[C@@H]1CSSC[C@H](NC(=O)[C@H](CC(N)=O)NC(=O)[C@@H](N)Cc2ccc(O)cc2)C(=O)N[C@@H](Cc2c[nH]cn2)C(=O)N[C@H](Cc2c[nH]c3ccccc23)C(=O)N[C@@H](CCCCN)C(=O)N[C@@H]([C@@H](C)O)C(=O)N1)C(=O)O", "target": "SSTR2 (Homo sapiens, UniProt P30874)", "EC50": "0.2 µM"}
{"Substance": "C[C@@]1(O)CC[C@@]2(C)[C@@H](CC[C@@H]3[C@@H]2CC[C@]2(C)[C@@H](c4cc(CO)on4)CC[C@@H]32)C1", "target": "Gamma-aminobutyric acid receptor subunit alpha-2/beta-1/gamma-2 (Homo sapiens, UniProt P18505+P18507+P47869)", "assay": "GABA current potentiation, positive modulator, two-electrode voltage clamp", "system": "Xenopus laevis oocytes", "setting": "30 s preincubation, with: GABA EC10", "EC50": "0.34 ± 0.18 µM"}
{"Substance": "[BH3-][P+](O)(OP(=O)(O)OC[C@H]1O[C@@H](n2cnc3c(N)ncnc32)[C@H](O)[C@@H]1O)OP(=O)(O)OP(=O)(O)OC[C@H]1O[C@@H](n2cnc3c(N)ncnc32)[C@H](O)[C@@H]1O (some centres unmarked)", "target": "P2RY2", "assay": "intracellular calcium rise, agonist", "system": "1321N1 expressing human P2Y2", "setting": "37 °C", "EC50": "> 100 µM"}
{"Substance": "O=C(CCC/C=C\\C/C=C\\C/C=C\\C/C=C\\CCCCCN=C=S)NC1CC1", "target": "Cnr1 (Rattus norvegicus, UniProt P20272)", "assay": "receptor internalization, agonist", "system": "HEK293", "setting": "30 min, 37 °C", "EC50": "0.0034 µM"}
{"Substance": "O=C1Nc2cc(Cl)c(Cl)cc2N2CCNCC12 (centres unmarked)", "target": "HTR2B (Homo sapiens, UniProt P41595)", "assay": "calcium signal, agonist", "EC50": "0.016 µM"}
{"Substance": "CC(C)C[C@H](NC(=O)CN)C(=O)N[C@@H](CC(=O)O)C(=O)N[C@@H](Cc1c[nH]c2ccccc12)C(=O)N[C@@H](Cc1c[nH]c2ccccc12)C(=O)N[C@@H](CO)C(=O)N[C@H](C(=O)O)C(C)C", "target": "Transcriptional regulator ComR", "system": "Streptococcus mutans", "EC50": "2.4 µM"}
{"Substance": "BP(=O)(OC[C@H]1O[C@@H](n2ccc(=O)[nH]c2=O)[C@H](O)[C@@H]1O)OP(=O)(O)OP(=O)(O)OC[C@H]1O[C@@H](n2ccc(=O)[nH]c2=O)[C@H](O)[C@@H]1O (some centres unmarked)", "target": "P2Y purinoceptor 1", "assay": "calcium signal, agonist, fluorescence", "EC50": "4.4 µM"}
{"Substance": "Clc1ccc2c(N3CCN(CCCN4CCN(c5ccnc6cc(Cl)ccc56)CC4)CC3)ccnc2c1", "target": "CRT (Plasmodium falciparum, UniProt W7FI62)", "EC50": "0.2 µM"}
{"Substance": "CCCN1CCc2cc(OC)cc3c2[C@H]1Cc1ccc(O)c(O)c1-3", "target": "Drd2 (Rattus norvegicus, UniProt P61169)", "assay": "cAMP, agonist", "EC50": "0.0003 µM"}
{"Substance": "CCN(CC)CCCC(C)NC(=O)c1ccc2c(c1)C(=O)c1ccccc1C2=O (centres unmarked)", "target": "ESR2 (Homo sapiens, UniProt Q92731)", "assay": "binding, fluorescence polarization competition", "EC50": "~0.234 µM"}
{"Substance": "CC(C)C[C@H](NC(=O)[C@H](CO)NC(=O)[C@H](Cc1c[nH]c2ccccc12)NC(=O)[C@H](Cc1c[nH]c2ccccc12)NC(=O)[C@H](CC(=O)O)NC(=O)[C@@H](N)CC(C)C)C(=O)O", "target": "Transcriptional regulator ComR", "system": "Streptococcus mutans", "EC50": "0.4 µM"}
{"Substance": "autoinducing peptide I", "target": "AgrC-I sensor His mutant (Staphylococcus aureus)", "assay": "reporter gene, agonist", "system": "Staphylococcus aureus P3-blaZ reporter, Staphylococcus aureus", "EC50": "> 10 µM"}
{"Substance": "CC(C)C[C@H](NC(=O)[C@H](CO)NC(=O)[C@H](Cc1c[nH]c2ccccc12)NC(=O)[C@H](Cc1ccccc1)NC(=O)[C@H](CC(=O)O)NC(=O)[C@H](CC(C)C)NC(=O)CN)C(=O)O", "target": "Transcriptional regulator ComR", "system": "Streptococcus mutans", "EC50": "5.2 µM"}
{"Substance": "CCCN(C/C=C/I)C1CCc2ccc(O)cc2C1 (centres unmarked)", "target": "ADRA2A (Homo sapiens, UniProt P08913)", "assay": "G protein activation, agonist, BRET, item: Gαi3", "system": "HEK293T, transfected", "setting": "Emax below 50%", "EC50": "0.06 ± 0.02 µM"}
{"Substance": "COc1ccc2c(c1)c(C1=C(c3c[nH]c4ccccc34)C(=O)NC1=O)cn2CCCN(C)C", "target": "Mothers against decapentaplegic homolog 4, with SMAD3 (Homo sapiens, UniProt Q13485, R361H)", "assay": "SMAD3 binding to SMAD4 R361H, GST pull-down", "EC50": "8.9 ± 0.7 µM"}
{"Substance": "[BH3-][P+](O)(OP(=O)(O)OC[C@H]1O[C@@H](n2ccc(=O)[nH]c2=O)[C@H](O)[C@@H]1O)OP(=O)(O)OP(=O)(O)OC[C@H]1O[C@@H](n2cnc3c(N)ncnc32)[C@H](O)[C@@H]1O (some centres unmarked)", "target": "P2RY2", "assay": "intracellular calcium rise, agonist", "system": "1321N1 expressing human P2Y2", "setting": "37 °C", "EC50": "> 100 µM"}
{"Substance": "CC(C)[C@H](NC(=O)[C@@H]1CSSC[C@H](NC(=O)[C@@H](N)Cc2c[nH]cn2)C(=O)N[C@@H](Cc2ccccc2)C(=O)N[C@H](Cc2c[nH]c3ccccc23)C(=O)N[C@@H](CCCCN)C(=O)N[C@@H]([C@@H](C)O)C(=O)N1)C(=O)O", "target": "SSTR3 (Homo sapiens, UniProt P32745)", "EC50": "4.2 µM"}
{"Substance": "CO/N=c1/ccn([C@@H]2O[C@H](COP(=O)(O)OP(=O)(O)OP(=O)(O)Oc3ccccc3)[C@@H](O)[C@H]2O)c(=O)[nH]1", "target": "P2RY4", "assay": "PLC activation, agonist", "system": "1321N1, transfected", "EC50": "> 10 µM"}
{"note": "Some of these lines once more:"}
{"Substance": "CC(C)C[C@H](NC(=O)[C@H](C)NC(=O)[C@H](Cc1c[nH]c2ccccc12)NC(=O)[C@H](Cc1c[nH]c2ccccc12)NC(=O)[C@H](CC(=O)O)NC(=O)[C@H](CC(C)C)NC(=O)CN)C(=O)O", "target": "Transcriptional regulator ComR", "system": "Streptococcus mutans", "EC50": "0.26 µM"}
{"Substance": "[BH3-][P+](O)(OP(=O)(O)OC[C@H]1O[C@@H](n2ccc(=O)[nH]c2=O)[C@H](O)[C@@H]1O)OP(=O)(O)OP(=O)(O)OC[C@H]1O[C@@H](n2cnc3c(N)ncnc32)[C@H](O)[C@@H]1O (some centres unmarked)", "target": "P2RY2", "assay": "intracellular calcium rise, agonist", "system": "1321N1 expressing human P2Y2", "setting": "37 °C", "EC50": "> 100 µM"}
{"Substance": "CC(C)C[C@H](NC(=O)CN)C(=O)N[C@@H](CC(=O)O)C(=O)N[C@@H](Cc1c[nH]c2ccccc12)C(=O)N[C@@H](Cc1c[nH]c2ccccc12)C(=O)N[C@@H](CO)C(=O)N[C@H](C(=O)O)C(C)C", "target": "Transcriptional regulator ComR", "system": "Streptococcus mutans", "EC50": "2.4 µM"}
{"Substance": "O=C1C2=C(CCN(Cc3ccccc3)C2)N2CCN=C2N1Cc1ccc(C(F)(F)F)cc1", "target": "CLPP (Homo sapiens, UniProt Q16740)", "assay": "FITC-casein degradation, activator", "setting": "without ClpX", "EC50": "0.46 µM"}
